Experimental data gathered from unrelated publications.
Numbered parts are unrelated; each lists some results of a single study.

Sample 1
Target: Phosphate system positive regulatory protein PHO4, full length, GST-tagged (PHO4, Saccharomyces cerevisiae, UniProt P07270, residues 1-312)
Technique: competition protein-binding microarray
Form: double-stranded DNA, one strand shown
Sample: in vitro
Concentration: 2 µM
Notes: whole 60-bp probe, lowest competitor level
Together with: Cbf1 competitor, 0.05 µM
Reading: higher = stronger binding
Constant ends, left off below: … GTCTTGATTCGCTTGACGCTGCTG
Target sequence (chain): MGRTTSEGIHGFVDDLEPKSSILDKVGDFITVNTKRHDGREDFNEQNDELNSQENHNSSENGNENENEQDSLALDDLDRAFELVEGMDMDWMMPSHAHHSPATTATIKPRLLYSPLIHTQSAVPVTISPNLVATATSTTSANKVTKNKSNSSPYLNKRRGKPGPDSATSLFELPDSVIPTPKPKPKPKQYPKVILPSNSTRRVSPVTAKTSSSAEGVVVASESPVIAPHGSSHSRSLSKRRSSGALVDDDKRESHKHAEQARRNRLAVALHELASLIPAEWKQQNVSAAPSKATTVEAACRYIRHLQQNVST
Sequence | fluorescence intensity [a.u.]
CACTTTTCTGGGTCTCTCGTGGTAGTCTTCCTTGTT | 7460
ATCTGGGATTGAAGACACATGAGTTTTTTTCTCACC | 6440
TGCGCAACAACTTTTCACGTGCAATTATGTCTAGAA | 13600
TTCGAAAAAAATACCCACGTGCTTTTTGGAAATGAA | 21400
AACACTCGAGTTACTTCCGTGATGGTTTAATGGTCA | 3720
AGTGCGAACTACTGTTACGTGTGAATTGTAAAGGCG | 5250
CCACATAAACATTCACACGTGGAACATGTACCAAAA | 17400
TGCATTCAAAACATCAACGTGGCCGTCCCATAAGGC | 15500

Sample 2
Target: RING finger protein unkempt homolog, zinc fingers 1-6, GST-SBP tag (UNK, Homo sapiens, UniProt Q9C0B0, residues 30-357)
Chain of UniProt Q9C0B0 (30-357, looked up): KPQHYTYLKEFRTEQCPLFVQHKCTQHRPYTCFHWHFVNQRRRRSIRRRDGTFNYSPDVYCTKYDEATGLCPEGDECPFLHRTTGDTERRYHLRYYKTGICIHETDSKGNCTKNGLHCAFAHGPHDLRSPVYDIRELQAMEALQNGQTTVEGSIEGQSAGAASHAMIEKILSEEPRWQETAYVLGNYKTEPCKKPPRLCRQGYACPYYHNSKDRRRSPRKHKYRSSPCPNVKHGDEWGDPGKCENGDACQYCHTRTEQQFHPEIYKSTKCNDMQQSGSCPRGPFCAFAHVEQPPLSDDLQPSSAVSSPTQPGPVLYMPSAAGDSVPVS
Technique: RNA Bind-n-Seq
Form: RNA
Sample: in vitro
Concentration: not given
Notes: RNA with constant flanks, human and mouse sites, ends assumed
Relative to: input RNA pool
Reading: higher = stronger binding
Constant ends, left off below: GGGAGUUCUACAGUCCGACGAUC … CAACAGAGGAUUGAGCAUCA
Sequence | bound/input enrichment [ratio]
GCAAAGCGGUGCACUCGGGCUCCACGCGCGCCCUGCGAGGUGGGCGCUGCGUUUUCAUUUCACGGGUGAGGAGACUUAGAGAGACGAAGCCACUUGUCCAAGGUCACGCCGCUGGUGAGU | 0.193
CAUGAAGAAAGAACAAUUUUGCCUAUGUCAAGAGCUUUCCGUGGUAAACACCUCUCUUUUAUAGUUCGAUUUCCAAACCAGGGCAGGCAAGUAGAUGACUUGGAGGUUUGGUCUCAUACA | 0.322
UCACUGCAGUCUUCCCUGGGUCUUCCCUUCAAAUGCCCAUGGCGUUUAUCCUUCUCCCUCUCUAGAAAUGUACUCGACUGUUAUAACGAGGGAGUGUGAUUGGGUCUCUGUAGGUCUCUG | 0.355
UUUAUGCACAUACUUAAAGGACAGAAAUGUCUGGGAAAGUAAUUGUUAAAUAAUGAUAUGUAACUUUUUAACUUUUUAAAUAAAUAACAAGAUUUUUAAUGUGUGUCUCCCUCAGGGUUG | 2.55
UUUAUUUUUAUUUUUAUUUUAUUUAUUUAAAAAUCUUGAUCUUUUUUACUUGUUUCAUCACAUAGCUCAGAGUAGGUCCUCAGAAAUUGUUCAUGAUUUUUAAAACAAAGGCCUUGGGCA | 4.32
GGAUGCCACCAAAGCCUCCCAUUUGCUAUAGUUUUAUUUCAUGCACUGGAAACUGAGCAUUUAUCGUAGAGUACCGCCAAGCUUUCACUCCAGUGCCGUUUGGCAAUGCAAUUUUUUUUA | 3.37
GAGUAAGCAUGCUGUACAUUGUUUUGUGUUUAGUUUUACACCAAACUGUAUUACAGUACUCUUAGUAUUCACCAGCAUACUCACUAUCUGCCUAAGAUAUGCAGCCUUUGUGUUACAAUA | 0.264
CUGGAAGGUUGUUGGCGCACGCGAUUGAAGCGGCGCACUCGGAGUAAACGCGGCUGGCGGUAGUACGUGUGUCUUUUUGCUGAGGGCAGUUAUGUUUCUCCAAUAUUACCUCAACGAGCA | 0.22

Sample 3
Target: Interferon regulatory factor 3, full length, phosphomimetic (IRF3, Homo sapiens, UniProt Q14653, residues 1-427, S386D/S396D/S398D/S402D/T404D/S405D)
Chain of UniProt Q14653 (whole entry, unmodified, looked up): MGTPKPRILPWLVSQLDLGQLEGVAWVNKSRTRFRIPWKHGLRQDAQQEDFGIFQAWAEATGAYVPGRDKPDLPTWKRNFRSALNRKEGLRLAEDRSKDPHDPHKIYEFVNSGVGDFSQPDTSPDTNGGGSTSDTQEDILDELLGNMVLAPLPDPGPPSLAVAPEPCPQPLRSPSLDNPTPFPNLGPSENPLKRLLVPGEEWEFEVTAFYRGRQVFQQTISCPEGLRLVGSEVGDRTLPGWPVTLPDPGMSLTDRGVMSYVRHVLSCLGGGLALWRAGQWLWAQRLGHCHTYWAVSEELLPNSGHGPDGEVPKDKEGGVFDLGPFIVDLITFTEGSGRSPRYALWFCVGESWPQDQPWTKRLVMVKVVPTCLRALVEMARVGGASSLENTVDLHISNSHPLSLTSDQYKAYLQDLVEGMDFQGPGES
Technique: protein-binding microarray
Form: double-stranded DNA, one strand shown
Sample: in vitro
Concentration: 2540 nM top
Notes: 60-bp whole probe
Together with: salmon DNA 0.4 mg/ml
Relative to: random background probes
Reading: higher = stronger binding
Constant ends, left off below: GCCTAGCAC … GTCTTGATTCGCTTGACGCTGCTG
Sequence | fitted relative affinity
TTAGGTCTGGGGTTTCGGTTAGTGCTA | 1.99 z-score
GGCGGTATCGGTATCGGGACGTGCTAG | 4.59 z-score
TTAGGACTGGGGTATCGGGTAGTGCTA | -0.625 z-score
TTAGGACTGGTACTGGGTTAGTGCTAG | -0.703 z-score
GAGGATATCGGGTATCGAGACGTGCTA | -0.31 z-score
GGCTGTTTGGTTCTTATCCTGTGCTAG | 0.435 z-score
GACGGTTTCGGTCTCGGGATGTGCTAG | 8.25 z-score
GACGGCTTCGACTATCGGGACGTGCTA | -0.708 z-score

Further values, each from its own experiment
Structure (SMILES) | system | setting | quantity | value
CCN(CC)CCN(C)Cc1cccc2ccccc12 | mouse, microsomes or S9 | 2 µM, 0.5 h | remaining compound | 0.0284%
